Experimental data from different studies.
Lines come from different studies, so protocols differ. Values joined by “and” are separate records of one study, mostly repeats; a detail may differ. Numbers after ± are the reported error.

The tumour-to-muscle ratio of `COc1cccc(OC)c1-c1cc(C(=O)NC2(C(=O)O)C3CC4CC(C3)CC2C4)nn1-c1ccc(C(=O)N(C)CCOCCN(C)C(=O)[C@H](CCCCNC(=O)[C@H](CC(C)C)NC(=O)C2OC2C(=O)O)NC(=O)CN2CCN(CC(=O)[O-])CCN(CC(=O)[O-])CCN(CC(=O)[O-])CC2)cc1C(C)C.[177Lu+3]` (mixture of isomers) is reported as 4.59 (mouse, HT-29 xenograft; 24 h post injection, biodistribution; baseline: tumour over muscle uptake).
The logP of `CC(C)(C)C(=O)Nc1ccccc1` is reported as 2.11 (water; 24 h).
Under “AUC(0-inf) per dose”, `Cc1nn(-c2nc3c(F)cc(F)cc3s2)c(O)c1C(c1ccc(C(F)(F)F)cc1)c1c(C)nn(-c2nc3c(F)cc(F)cc3s2)c1O` is recorded as 3030 kg·ng·h/mL/mg and 2760 kg·ng·h/mL/mg and 3180 kg·ng·h/mL/mg (ICR mouse, plasma; ip, 10 mg/kg).
For `CC[C@H](C)[C@@H]1NC(=O)[C@H](Cc2ccc(O)cc2)NC(=O)CCCSC[C@@H](C(=O)N(CC(=O)N[C@@H](CC(C)C)C(=O)NCC(N)=O)Cc2ccc(F)cc2)NC(=O)[C@H](CC(N)=O)NC(=O)[C@H](CCC(N)=O)NC1=O`, “severe adverse events” read 0% (human; intranasal, 50 µg single dose).
`CC[C@H](C)[C@H](NC(=O)[C@H](CCC(N)=O)NC(=O)[C@@H](NC(=O)[C@@H]1CCCN1[C@@H]1CN(C(=O)[C@H](CCCCN)NC(=O)[C@H](CC(N)=O)NC(=O)[C@@H](NC(=O)[C@@H](NC(=O)[C@H](CCC(N)=O)NC(=O)[C@@H](N)C(C)C)[C@@H](C)CC)[C@@H](C)CC)CC[C@H]1NS(=O)(=O)c1ccc(C)cc1)C(C)C)C(=O)N[C@H](C(=O)N[C@@H](Cc1ccc(O)cc1)C(=O)N[C@@H](CCCCN)C(N)=O)C(C)C`: “random coil content” 55.9% (CD spectroscopy; 20 mM phosphate buffer; 125 µM, 37 °C).
For `CN(Cc1ccccc1)C(=O)CN1CCN(CC(=O)[O-])CCN(CC(=O)N(C)Cc2ccccc2)CC1.[44Sc+3]`, the tracer uptake was 0.42 %ID/g (mouse, bone; intravenous, 1 h).
`O=C(Nc1cnccc1-c1ccc([18F])cc1)c1ccnc(NC(=O)C2CC2)c1` gave an SUV of 1.17 (ex vivo gamma counting; GSK-3β transgenic mice, late-stage, bladder; intravenous, 120 min, mean, P-gp inhibitor pretreatment, added: tariquidar 15 mg/kg iv).
`Cc1cc(-c2ccc(C(=O)[C@@H]3CCCC[C@H]3C(=O)Nc3cnn4c3C(=O)NCC4)cc2)[nH]n1`: “cumulative radioactivity recovery” 73.4% and 84.8% and 80.8% and 65.2% (human, faeces; oral, 200 mg, 0-120 h; baseline: dose).
`O=C(Nc1cnccc1-c1ccc([18F])nc1)c1ccnc(NC(=O)C2CC2)c1` has an SUV of 0.374 (ex vivo gamma counting; FVB/NJ mice, both sexes, stomach; intravenous, 120 min, mean, P-gp inhibitor pretreatment, added: tariquidar 15 mg/kg iv).
The intact complex of `CN([O-])C(=O)CN1CCN(CC(=O)N(C)[O-])CCN(Cc2ccccn2)CC1.[89Zr+4]` is reported as 92.7% (radio-TLC; human serum; 3 days, run 1).
`O=C1NC2(CC2)COc2ncc(F)cc2[C@H]2COCCN2c2ccn3ncc1c3n2` gave a micronucleus rate of 0.65 ± 0.22 ‰ (bone marrow micronucleus test; NIH mice, female; oral, 20 mg/kg/day, 3 days).
The tracer uptake of `CN(Cc1ccccc1)C(=O)CN1CCN(CC(=O)[O-])CCN(CC(=O)[O-])CC1.[44Sc+3]` is reported as 0.13 %ID/g (mouse, brain; intravenous, 1 h).
For `O=S1(=O)CC2CCCCC2CS1` (stereo not drawn), the solubility was 15.7 mM (phase solubility, NMR; water; 25 °C, added: hydroxypropyl-β-cyclodextrin 141 mM).
With `O=c1c2ccccc2[se]n1CCCCCCn1[se]c2ccccc2c1=O` the solubility was 1.3 ± 0.47 µg/mL (shake-flask, RP-HPLC; sodium acetate buffer; 24 h, pH 4.5, 25 °C).
For `C=C[C@]1(C)C[C@@H](OC(=O)CSc2ccc(NC(=O)c3ccco3)cc2)[C@]2(C)[C@H](C)CC[C@]3(CCC(=O)[C@H]32)[C@@H](C)[C@@H]1O`, the CL/F was 64.5 mL/min/kg (chicken, Mycoplasmoides gallisepticum infected, plasma; intramuscular, 80 mg/kg).
With `CC[C@H](C)/C=C/C=C/C=C/C(O)=C/C(=O)C(Cl)(Cl)Cl` the MRT was 5.7 h (C57BL/6 mice, female, plasma; oral, 25 mg/kg).
The tracer uptake of `COc1ccc2c(c1)C(C)(C)C(/C=C/C1=C(Oc3ccc(C(=O)NCCCCOc4cc(CN(Cc5ccccn5)Cc5ccccn5)cc(CN(Cc5ccccn5)Cc5ccccn5)c4)cc3)C(=C/C=C3/N(CCCCS(=O)(=O)[O-])c4ccc(OC)cc4C3(C)C)CCC1)=[N+]2CCCCS(=O)(=O)[O-].O=[N+]([O-])[O-].O=[N+]([O-])[O-].[99Tc+].[C-]#[O+].[C-]#[O+].[C-]#[O+].[Zn+2]` is reported as 0.33 %ID/g (mouse, muscle; 12 h).
The remaining compound of `Cl.NCc1ccc2c(c1)CN(C1CCC(=O)NC1=O)C2=O` (stereo not drawn) is reported as < 1% (male cynomolgus monkey, whole blood; 3 h).
`COc1cc2ncnc(Oc3ccc(Nc4nccc5[nH]cc(-c6ccc(F)cc6)c(=O)c45)cc3F)c2cc1OC` gave a Vd of 0.8 L/kg (male cynomolgus monkey, plasma; intravenous, 1.5 mg/kg).
Under “fluorescence quantum yield”, `CCCCN1C(=O)c2cccc3c(NCCCN4CCOCC4)ccc(c23)C1=O` is recorded as 0.34 (DMF).
For `CC(=O)N([O-])CCCCCNC(=O)CCC(=O)N([O-])CCCCCNC(=O)CCC(=O)N([O-])CCCCCN.[89Zr+4]`, the intact complex was 100% (human plasma; 1 d, 37 °C).
`CC[C@H](C)[C@@H](C(=O)N[C@@H](CC(C)C)C(=O)N[C@@H](CO)C(=O)N[C@@H](CO)C(=O)N[C@H](C(=O)N[C@@H](CCC(=O)O)C(=O)N[C@H](C(=O)NCC(=O)N[C@@H](CO)C(=O)N[C@@H](CC(N)=O)C(=O)N[C@H](C(=O)N1C[C@H](O)C[C@H]1C(N)=O)[C@@H](C)O)C(C)C)[C@@H](C)O)N(C)C(=O)[C@H](C)NC(=O)CN(C)C(=O)[C@H](Cc1ccccc1)NC(=O)[C@H](CO)NC(=O)[C@H](CO)NC(=O)[C@H](CCCNC(=N)N)NC(=O)[C@H](CCC(N)=O)NC(=O)[C@H](CC(C)C)NC(=O)[C@H](Cc1ccccc1)NC(=O)[C@H](CCCC(=O)O)NC(=O)[C@H](C)NC(=O)[C@H](CC(C)C)NC(=O)[C@H](CCCNC(=N)N)NC(=O)[C@H](CCC(=O)O)NC(=O)[C@@H](NC(=O)[C@H](C)NC(=O)[C@@H]1CCCCNC(=O)C[C@H](NC(=O)[C@H](CCCNC(=N)N)NC(=O)CC[C@H](NC(=O)CCCCCCCCCCCCCCCCCCC(=O)O)C(=O)O)C(=O)NCC(=O)N[C@@H]([C@@H](C)O)C(=O)N[C@@H](C)C(=O)N[C@@H]([C@@H](C)O)C(=O)N1)[C@@H](C)O`: “main peak area remaining” 98% (RP-HPLC; water; 1.0 mg/mL, 7 days, pH 6.0, 40 °C).
With `CCCC[C@H](OC(C)=O)c1ccccc1C(=O)O` the MRT(0-last) was 1.2 ± 1 h (beagle dog, both sexes, whole blood; intravenous, 0.5 mg/kg, single dose).
`O=C([O-])CN1CCN(CC(=O)[O-])CCN(CC(CCCc2ccccc2[N+](=O)[O-])N(CC(=O)[O-])CC(=O)[O-])CC1.[177Lu+3]` (stereo not drawn) — result for “intact radiolabelled complex”: 99.9 ± 0.1% (TLC; human serum; 86 h, pH 7, 37 °C).
For `C=CC(=O)Nc1cc(Nc2nccc(-c3cn(C)c4ccccc34)n2)c(OC)cc1N(C)CCNC`, the remaining compound was 98.8% (human, dried blood spots; 270 ng/mL, 30 d, -80 °C, high QC level).
`C/C(N)=N/C(=N\S(=O)(=O)c1ccc(C(F)(F)F)cc1)N1C[C@H](c2ccccc2)C(c2ccc(Cl)cc2)=N1` gave a Vd of 2.3 L/kg (female cynomolgus monkey, plasma; intravenous, 2 mg/kg).
The tumour-to-muscle ratio of `COc1cccc(OC)c1-c1cc(C(=O)NC2(C(=O)O)C3CC4CC(C3)CC2C4)nn1-c1ccc(C(=O)NCCNC(=O)[C@H](CCCCNC(=O)[C@H](CC(C)C)NC(=O)C2OC2C(=O)O)NC(=O)CN2CCN(CC(=O)[O-])CCN(CC(=O)[O-])CCN(CC(=O)[O-])CC2)cc1C(C)C.[177Lu+3]` (mixture of isomers) is reported as 52.9 (mouse, HT-29 xenograft; 24 h post injection, biodistribution; baseline: tumour over muscle uptake).
`COC1C=COC2(C)Oc3c(C)c(O)c4c(c3C2=O)C2=NC3(CCN(CC(C)C)CC3)NC2=C(NC(=O)C(C)=CC=CC(C)C(O)C(C)C(O)C(C)C(OC(=O)Nc2cccnn2)C1C)C4=O` (stereo not drawn): “elimination rate constant” 7.78e-05 s⁻¹ (CD-1 mouse female, plasma; intravenous, 5 mg/kg).
For `CC(C)[C@H](NC(=O)[C@H](Cc1ccccc1)NC(=O)[C@H](Cc1ccccc1)NC(=O)OCC1c2ccccc2-c2ccccc21)C(=O)N[C@@H](CCC(=O)O)C(=O)N[C@@H](CCC(=O)O)C(N)=O`, “random coil content” read 48.7% (CD spectroscopy; peptide nanofibres).
The half-life of `CCC(CC)CNC(=N)NC(=N)NCCCCCCNC(=N)NC(=N)NCC(CC)CC` is reported as 1.41 h (metabolic stability; monkey, liver microsomes; 2 µM).
The concentration of `Cc1ncsc1-c1ccc(CNC(=O)[C@@H]2C[C@@H](O)CN2C(=O)[C@@H](NC(=O)COCC(C)(COCCOCCOCCNC(=O)C[C@@H]2N=C(c3ccc(Cl)cc3)c3c(sc(C)c3C)-n3c(C)nnc32)COCCOCCOCCNC(=O)C[C@@H]2N=C(c3ccc(Cl)cc3)c3c(sc(C)c3C)-n3c(C)nnc32)C(C)(C)C)cc1` is reported as 319 ng/mL (male C57BL/6 mouse, plasma; subcutaneous, 5 mg/kg, 4.98 min, single dose).
For `O=C([O-])CN1CCN(CC(=O)[O-])CCN(CC(=O)[O-])CC1.[44Sc+3]`, the tracer uptake was 0.1 %ID/g (mouse, heart; intravenous, 1 h).
`Cc1nc(N)nc2c1C(=O)N[C@@H](c1ccc(F)cc1-c1cccc(O[11CH3])n1)C2` gave an SUV of 2.7 ± 0.1 (ex vivo biodistribution; mice, U87 subcutaneous xenograft, liver; 60 min post-injection, baseline, vehicle pre-treatment).
The MRT(0-inf) of `CCn1cc(-c2cc(Cn3ccnc3)cc3c2CCN([C@H](c2cc(OC)ccn2)C2CC2)C3=O)c(C(F)(F)F)n1` is reported as 1.4 h (male CD-1 mouse, plasma; oral, 10 mg/kg).
The Tmax of `C=C(NC(=O)c1csc(-c2nc3c(cc2O)-c2nc(cs2)C(=O)NC(C(C)O)C(=O)NC(=C(C)OC)c2nc(cs2)C(=O)NC2c4nc(cs4)C(=O)NC(COC(=O)c4c5c6c(cccc6n4O)COC(=O)C(OC4CC(C)(O)C(N(C)C)C(C)O4)C2OC5)c2nc-3cs2)n1)C(N)=O` (stereo not drawn) is reported as 6.08 h (ICR mice, Streptococcus pneumoniae ATCC 49169 infected, immunocompromised, blood; intravenous, 2 mg/kg/day three times daily).
For `O=C([O-])CN1CCN(CC(=O)[O-])CCN(Cc2cccc(C(=O)[O-])n2)CC1.[177Lu+3]`, the tracer uptake was 0.49 %ID/g (mouse, lung; intravenous, 1 h).
With `N#C[C@@H]1CCCN1C(=O)CNC(=O)c1ccnc2ccc(OCCCN3CCN(C(=O)CCc4ccc5c(c4)CN4CCN6CC(=O)[O][68Ga-]([O]C(=O)C4)([O]5)[O]c4ccc(CCC(=O)N5CCN(CCCOc7ccc8nccc(C(=O)NCC(=O)N9CCC[C@H]9C#N)c8c7)CC5)cc4C6)CC3)cc12` the tumour-to-organ ratio was 16.6 ± 4.48 (BALB/c nude mice, U-87 MG tumour; 120 min post-injection; baseline: tumour over muscle).
`CN(Cc1ccccc1)C(=O)CN1CCN(CC(=O)[O-])CCN(Cc2cccc(C(=O)[O-])n2)CC1.[177Lu+3]` gave a tracer uptake of 0.91 %ID/g (mouse, lung; intravenous, 1 h).
`O=C(c1ccccc1)N1C(c2ccc(OCC3CCN(CCCF)C3)cc2)c2ccc(O)cc2CC12CC2` (stereo not drawn) gave an AUC(0-inf) of 8220 ng·h/mL (C57BL/6J mouse, plasma; intraperitoneal, 25 mg/kg).

A few entries again:
`Cc1cc(-c2ccc(C(=O)[C@@H]3CCCC[C@H]3C(=O)Nc3cnn4c3C(=O)NCC4)cc2)[nH]n1`: “cumulative radioactivity recovery” 73.4% and 84.8% and 80.8% and 65.2% (human, faeces; oral, 200 mg, 0-120 h; baseline: dose).
With `CC[C@H](C)/C=C/C=C/C=C/C(O)=C/C(=O)C(Cl)(Cl)Cl` the MRT was 5.7 h (C57BL/6 mice, female, plasma; oral, 25 mg/kg).
`O=C(Nc1cnccc1-c1ccc([18F])nc1)c1ccnc(NC(=O)C2CC2)c1` has an SUV of 0.374 (ex vivo gamma counting; FVB/NJ mice, both sexes, stomach; intravenous, 120 min, mean, P-gp inhibitor pretreatment, added: tariquidar 15 mg/kg iv).
For `O=C([O-])CN1CCN(CC(=O)[O-])CCN(CC(=O)[O-])CC1.[44Sc+3]`, the tracer uptake was 0.1 %ID/g (mouse, heart; intravenous, 1 h).
